Measured values from different studies.
Compare with care: the assays were run in different laboratories.
Organism: Enterococcus faecalis

`CN[C@@H]1[C@H](O)[C@H](NC)[C@H]2O[C@]3(O)[C@H](O[C@@H]2[C@H]1O)O[C@H](C)C[C@]3(O)CNCc1ccc(F)cc1` has an MIC of over 200 µg/mL (ATCC 33186).
`CN1C(=O)[C@@H]2NC(=O)[C@@H]3NC(=O)[C@@H](c4ccc(O)cc4)NC(=O)[C@H](NC(=O)C(NCc4cccc(O)c4O)c4ccc(O)cc4)Cc4c[nH]c5cc(ccc45)-c4cc3cc(c4O)Oc3ccc(cc3)C[C@H]1C(=O)N[C@@H](C(=O)O)c1ccc(O)c(c1)Oc1ccc2cc1` (some centres unmarked) gave an MIC of 8 to 16 µg/mL (brain heart infusion medium).
With `CC(C)[C@H](NC(=O)[C@H](CCCCN)NC(=O)[C@H](CCCNC(=N)N)NC(=O)CNC(=O)[C@H](C)NC(=O)[C@H](CC(N)=O)NC(=O)[C@H](CCCNC(=N)N)NC(=O)[C@@H](NC(=O)[C@H](CCCCN)NC(=O)[C@H](CC(=O)O)NC(=O)[C@@H](NC(=O)[C@@H](NC(=O)[C@H](CCCNC(=N)N)NC(=O)[C@H](CCCNC(=N)N)NC(=O)[C@H](Cc1c[nH]c2ccccc12)NC(=O)[C@H](Cc1c[nH]c2ccccc12)NC(=O)CN)[C@@H](C)O)C(C)C)C(C)C)C(=O)O` the MIC was over 256 µg/mL (clinical strain; 18 h, 37 °C).
With `CC[C@H](C)[C@H](NC(=O)[C@@H](Cc1ccccc1)NC)C(=O)OC[C@H](N)C(=O)N[C@H](CCCNC(=N)N)C(=O)N[C@@H](C(=O)N[C@H](C(=O)OC[C@H](N)C(=O)N[C@H]1C(=O)N[C@@H](C)C(=O)N[C@@H](CC(C)C)C(=O)N[C@@H]([C@@H](C)CC)C(=O)O[C@H]1C)[C@@H](C)CC)[C@@H](C)CC` the MIC was 1 to 2 µg/mL (broth microdilution; ATCC 51299, vancomycin-resistant, brain heart infusion broth; 16 h, 37 °C).
The MIC of `O=C1c2ccccc2NC(c2ccc(O)c(O)c2)N1/N=C/c1ccc(O)c(O)c1` (centres unmarked) is reported as over 256 µg/mL (broth microdilution; VRE 368, vancomycin-resistant, brain-heart infusion; 24 h).
With `CC1=C[C@@]2(C)C(=C(C)[C@H]3[C@@H]4C[C@H](C)C[C@H](C)[C@H]4[C@H]4Oc5ccc(cc5)C[C@]5(O)NC(=O)[C@]6(O[C@H]65)C(=O)[C@@H]2[C@@H]43)[C@H]1C` the MIC was 3.1 µM (microbial growth, broth dilution; ATCC51299; drug-resistant strain).
`COc1cccc(C2Nc3ccccc3C3=[O+][Cu-2]4([Cl])[O]c5c(cccc5OC)C=[N+]4N32)c1O` (centres unmarked) has an MIC of over 256 µg/mL (broth microdilution; vancomycin-resistant 725 B; 24 h).
`CNc1nc(SC)nc2ccccc12` gave an MIC of over 64 µM (microbial growth, broth dilution).
`O=[N+]([O-])c1ccc2c(c1)C=[N+]1N3C(=[O+][Cu-2]1([Cl])[O]2)c1ccccc1NC3c1cc([N+](=O)[O-])ccc1O` (centres unmarked) gave an MIC of 256 µg/mL (broth microdilution; vancomycin-resistant 725 B; 24 h).
`COc1ccc(CCNc2cc(-c3ccccc3)nc3ncnn23)cc1` gave an MIC of over 64 µM (microbial growth, broth dilution).
`CCN1CCNC1=[S+][Ag-3]([O][N+](=O)[O-])([P+](c1ccccc1)(c1ccccc1)c1ccccc1)[P+](c1ccccc1)(c1ccccc1)c1ccccc1` gave an MIC of 10 µg/mL (agar dilution; MTCC 439, Mueller Hinton agar; 24 h, 37 °C).
The MIC of `CN1C(=O)[C@@H]2NC(=O)[C@@H]3NC(=O)[C@@H](c4ccc(O)cc4)NC(=O)[C@H](NC(=O)C(NCc4ccc(Br)cc4)c4ccc(O)cc4)Cc4c[nH]c5cc(ccc45)-c4cc3cc(c4O)Oc3ccc(cc3)C[C@H]1C(=O)N[C@@H](C(=O)O)c1ccc(O)c(c1)Oc1ccc2cc1` (some centres unmarked) is reported as 8 µg/mL (brain heart infusion medium).
With `c1ccc(CCNC2CCCc3c2[nH]c2ccc(C4CCCCC4)cc32)cc1` (centres unmarked) the MIC was 2 µg/mL (broth microdilution; JH2-2, cation-adjusted MHB).
With `CN[C@@H]1[C@H](O)[C@H](NC)[C@H]2O[C@]3(O)[C@H](O[C@@H]2[C@H]1O)O[C@H](C)C[C@]3(O)CNCc1ccc(OC(F)(F)F)cc1` the MIC was over 200 µg/mL (ATCC 33186).
With `COc1cc(/C=N/N2C(=O)c3ccccc3NC2c2cc(OC)c(O)c(OC)c2)cc(OC)c1O` (centres unmarked) the MIC was over 256 µg/mL (broth microdilution; VRE 368, vancomycin-resistant, brain-heart infusion; 24 h).
`CN1C(=O)[C@@H]2NC(=O)[C@@H]3NC(=O)[C@@H](c4ccc(O)cc4)NC(=O)[C@H](NC(=O)C(NCc4cc(C(F)(F)F)cc(C(F)(F)F)c4)c4ccc(O)cc4)Cc4c[nH]c5cc(ccc45)-c4cc3cc(c4O)Oc3ccc(cc3)C[C@H]1C(=O)N[C@@H](C(=O)O)c1ccc(O)c(c1)Oc1ccc2cc1` (some centres unmarked) has an MIC of 8 µg/mL (brain heart infusion medium).
`Cc1cccc(-c2nc(Nc3ccncn3)c3sccc3n2)n1` gave an MIC of over 64 µM (microbial growth, broth dilution).
The MIC of `CC[C@H](C)[C@H](NC(=O)[C@@H](Cc1ccccc1)NC)C(=O)N[C@@H](CO)C(=O)N[C@H](CCC(N)=O)C(=O)N[C@@H](C(=O)N[C@H](C(=O)OC[C@H](N)C(=O)N[C@H]1C(=O)N[C@@H](C)C(=O)N[C@@H](C2CCCCC2)C(=O)N[C@@H]([C@@H](C)CC)C(=O)O[C@H]1C)[C@@H](C)CC)[C@@H](C)CC` is reported as 0.5 µg/mL (broth microdilution; ATCC 51299, vancomycin-resistant, brain heart infusion broth; 16 h, 37 °C).
`CN1C(=O)[C@@H]2NC(=O)[C@@H]3NC(=O)[C@@H](c4ccc(O)cc4)NC(=O)[C@H](NC(=O)C(NCc4ccc(O)c(O)c4O)c4ccc(O)cc4)Cc4c[nH]c5cc(ccc45)-c4cc3cc(c4O)Oc3ccc(cc3)C[C@H]1C(=O)N[C@@H](C(=O)O)c1ccc(O)c(c1)Oc1ccc2cc1` (some centres unmarked) has an MIC of 8 µg/mL (brain heart infusion medium).
`CCCCCCCCCCCC[S+]([O-])CC1OC(OC2C(N)CC(N)C(OC3OC(CN)C(O)CC3N)C2O)C(O)C(N)C1O` (mixture of isomers) gave an MIC of 18.8 µg/mL (ATCC 29212).
`CN1C(=O)[C@@H]2NC(=O)[C@@H]3NC(=O)[C@@H](c4ccc(O)cc4)NC(=O)[C@H](NC(=O)C(NCc4cc(F)cc(F)c4F)c4ccc(O)cc4)Cc4c[nH]c5cc(ccc45)-c4cc3cc(c4O)Oc3ccc(cc3)C[C@H]1C(=O)N[C@@H](C(=O)O)c1ccc(O)c(c1)Oc1ccc2cc1` (some centres unmarked) has an MIC of 8 µg/mL (brain heart infusion medium).
`COc1ccc2nc(C)cc(OCC(=O)Nc3cc(C)cc(C)c3)c2c1` has an MIC of 64 µM (microbial growth, broth dilution).
`O=C1c2ccccc2NC(c2ccccc2O)N1/N=C/c1ccccc1O` (centres unmarked) has an MIC of over 256 µg/mL (broth microdilution; VRE 368, vancomycin-resistant, brain-heart infusion; 24 h).
For `Cc1ccc2nc(C(F)(F)F)c(C(=O)NCc3cccc(Cl)c3)n2c1`, the MIC was 64 µM (microbial growth, broth dilution).
With `CN1C(=O)[C@@H]2NC(=O)[C@@H]3NC(=O)[C@@H](c4ccc(O)cc4)NC(=O)[C@H](NC(=O)C(NCc4cc(O)cc(O)c4)c4ccc(O)cc4)Cc4c[nH]c5cc(ccc45)-c4cc3cc(c4O)Oc3ccc(cc3)C[C@H]1C(=O)N[C@@H](C(=O)O)c1ccc(O)c(c1)Oc1ccc2cc1` (some centres unmarked) the MIC was 4 µg/mL (brain heart infusion medium).
For `CN[C@@H]1[C@H](O)[C@H](NC)[C@H]2O[C@]3(O)[C@H](O[C@@H]2[C@H]1O)O[C@H](C)C[C@@]3(O)CNCc1ccc(Cl)cc1`, the MIC was 6.3 to 12.5 µg/mL (ATCC 33186).
`CC[C@H](C)[C@H](NC(=O)[C@H](NC(=O)[C@@H](CCC(N)=O)NC(=O)[C@@H](N)COC(=O)[C@@H](NC(=O)[C@@H](Cc1ccccc1)NC)[C@@H](C)CC)[C@@H](C)CC)C(=O)N[C@@H](CO)C(=O)N[C@H]1C(=O)N[C@@H](C)C(=O)N[C@@H](C2CCCCC2)C(=O)N[C@@H]([C@@H](C)CC)C(=O)O[C@H]1C` gave an MIC of 0.5 µg/mL (broth microdilution; ATCC 51299, vancomycin-resistant, brain heart infusion broth; 16 h, 37 °C).
With `CN1C(=O)[C@@H]2NC(=O)[C@@H]3NC(=O)[C@@H](c4ccc(O)cc4)NC(=O)[C@H](NC(=O)C(NCc4cccc(F)c4F)c4ccc(O)cc4)Cc4c[nH]c5cc(ccc45)-c4cc3cc(c4O)Oc3ccc(cc3)C[C@H]1C(=O)N[C@@H](C(=O)O)c1ccc(O)c(c1)Oc1ccc2cc1` (some centres unmarked) the MIC was 16 µg/mL (brain heart infusion medium).
The MIC of `CNC(CC(C)C)C(=O)NC1C(=O)NC(CC(N)=O)C(=O)NC2C(=O)NC3C(=O)NC(C(=O)NC(C(=O)O)c4cc(O)cc(O)c4-c4cc3ccc4O)C(O)c3ccc(c(Cl)c3)Oc3cc2cc(c3OC2OC(CO)C(O)C(O)C2OC2CC(C)(NCc3ccc(-c4ccc(Cl)cc4)cc3)C(O)C(C)O2)Oc2ccc(cc2Cl)C1O` (centres unmarked) is reported as 0.08 µg/mL (VanB ATCC 51299).
For `CN1C(=O)[C@@H]2NC(=O)[C@@H]3NC(=O)[C@@H](c4ccc(O)cc4)NC(=O)[C@H](NC(=O)C(NCc4cccc(C(F)(F)F)c4)c4ccc(O)cc4)Cc4c[nH]c5cc(ccc45)-c4cc3cc(c4O)Oc3ccc(cc3)C[C@H]1C(=O)N[C@@H](C(=O)O)c1ccc(O)c(c1)Oc1ccc2cc1` (some centres unmarked), the MIC was 8 µg/mL (brain heart infusion medium).
The MIC of `COc1ccc2nc(C)cc(OCC(=O)Nc3ccccc3OC)c2c1` is reported as 64 µM (microbial growth, broth dilution).
`Oc1ccccc1C1Nc2ccccc2C2=[O+][Cu-2]3([Cl])[O]c4ccccc4C=[N+]3N21` (centres unmarked) has an MIC of 256 µg/mL (broth microdilution; vancomycin-resistant 368; 24 h).
